Published values gathered from unrelated publications.
Compare with care: the assays were run in different laboratories. Numbers after ± are the reported error.
Cell line: Caco-2

| Compound | test | conditions | how to read | measurement | result |
| --- | --- | --- | --- | --- | --- |
| CC[C@H](C)[C@@H](C(=O)N[C@@H](Cc1ccc(O)cc1)C(=O)N1CCC[C@H]1C(=O)N[C@@H](Cc1ccccc1)C(=O)O)n1cc(C(Cc2ccc(O)cc2)NC(=O)[C@@H](NC(=O)[C@H](CCCNC(=N)N)NC(=O)[C@@H](N)CC(=O)O)C(C)C)nn1 (some centres unmarked) | cell growth or viability, MTT | 200 µM, 48 h |  | viability | 55.3% |
| CNC(=N)NC(=N)NCCCCCCNC(=N)NC(=N)NC |  | 5 µM, 2 h, apical to basolateral |  | recovery | 66.2% |
| N#Cc1cccc(-c2ccc(=O)n(Cc3cccc(-c4ncc(OCC5CCN(CC(=O)N6CCN(c7ccc8c(c7)C(=O)N(C7CCC(=O)NC7=O)C8=O)CC6)CC5)cn4)c3)n2)c1 (centres unmarked) | transwell monolayer | 2 µM, 120 min, pH 7.4, 0.1% DMSO, together with: tariquidar 5 µM |  | Papp A-B | 0.05 ± 0.02 ×10⁻⁶ cm/s |
| COc1cc(-c2cncc(-c3ccc(N4CCNCC4)cc3)c2C)cc(OC)c1OC |  | 5 µM, 120 min, pH 7.4 |  | Papp B-A | 8 ×10⁻⁶ cm/s |
| CO[C@@H](C[C@H]1C(C)=CC[C@@H]2[C@]3(C)C[C@H](O[C@@H]4O[C@@H](C)[C@H](O)[C@@H](O)[C@H]4O)[C@@H](O)C(C)(C)[C@H]3CC[C@]21C)[C@H](N)C(=O)O | transwell permeability | 5 µM, 1 h |  | recovery | 92% |
| CCC(CC)CNC(=N)NC(=N)NCCCCCCNC(=N)NC(=N)NCC(CC)CC |  | 5 µM, 2 h, apical to basolateral |  | recovery | 81.3% |
| CNC(=O)C[C@H](Cc1ccc(C#N)cc1)NC(=O)c1cc(-c2ccc(CN[C@H](C)c3ccc(C)cc3)o2)ccc1Cl |  |  | reference: Papp B-A over Papp A-B | efflux ratio | 1.6 |
| C[C@@H](CO)NC(=O)c1cc(-c2ccc(Cl)cc2)nn(-c2cnn(C)c2)c1=O |  | 2 µM, 3 h, pH 7.2 |  | Papp A to B | 25.5 ×10⁻⁶ cm/s |
| c1cc2nc(c1)-c1cccc(n1)CCCc1ccc(cc1)OCCCCCCOc1ccc(cc1)CCC2 | cell growth or viability, MTT | 50 µM, 48 h |  | viability | 73.8% |
| CCCCC(CC)CNC(=N)NC(=N)NCCCCCCCCNC(=N)NC(=N)NCC(CC)CCCC (centres unmarked) |  | 5 µM, 2 h, apical to basolateral |  | recovery | < 22.3% |
| CCC(C)OC(=O)c1ccc(O)cc1 (centres unmarked) |  | 5 µM, 60 min, A-B direction |  | hydrolysed compound | 5.2 ± 0.4% |
| CC(C)C(C)NC(=O)COC(=O)c1cc2c(s1)CCC2 (centres unmarked) |  | 25 µM, 2 h |  | Papp | 2.3 ×10⁻⁶ cm/s |
| CC(=O)N1CCC[C@H]1C(=O)N[C@@H](CC(C)C)C(=O)N[C@@H](Cc1cncn1CCCCCCCCc1ccccc1)C(=O)N[C@@H](CO)C(=O)N[C@H](C(N)=O)[C@@H](C)OP(=O)(O)O |  | 10 µM, 2 h |  | recovery B-A | 72.1% |
| O=C(Oc1ccccc1)c1ccc(O)cc1 |  | 5 µM, 60 min, A-B direction |  | hydrolysed compound | 70 ± 0.7% |
| CCCCC(CC)CNC(=N)NC(=N)NCCC (centres unmarked) |  | 5 µM, 2 h, basolateral to apical |  | recovery | 66.6% |
| CC(C)OC(=O)c1ccc(O)cc1 |  | 5 µM, 60 min, A-B direction |  | hydrolysed compound | 10.4 ± 1.9% |
| CC1CN(C(C)CO)C(=O)c2cccc(N(C)C(=O)c3ccncc3)c2OC1CN(C)Cc1ccc(Oc2ccccc2)cc1 (centres unmarked) |  | time not given, apical pH 6.5, basolateral pH 7.4 |  | mass recovery | 74.5 ± 4% |

For quick reference, copied from above:
| Compound | test | conditions | how to read | measurement | result |
| --- | --- | --- | --- | --- | --- |
| CC(C)OC(=O)c1ccc(O)cc1 |  | 5 µM, 60 min, A-B direction |  | hydrolysed compound | 10.4 ± 1.9% |
| CC1CN(C(C)CO)C(=O)c2cccc(N(C)C(=O)c3ccncc3)c2OC1CN(C)Cc1ccc(Oc2ccccc2)cc1 (centres unmarked) |  | time not given, apical pH 6.5, basolateral pH 7.4 |  | mass recovery | 74.5 ± 4% |
